# Assay results of several laboratories.
# Technique: steady-state kinetics
# B1: WlbA (Thermus thermophilus, UniProt Q72KX8); chain MTRFALTGLAGYIAPRHLKAIKEVGGVLVASLDPATNVGLVDSFFPEAEFFTEPEAFEAYLEDLRDRGEGVDYLSIASPNHLHYPQIRMALRLGANALSEKPLVLWPEEIARLKELEARTGRRVYTVLQLRVHPSLLALKERLGQEKGAKDVVLTYVTGRGKWYGKSWKVDEAKSGGLATNIGIHFFDLLAWLFGRALHVEVHARTPTVNAGYLELEGARVRWFLSIDPSFVPEPLRRQGKRTYRSIAVDGEEVEFSEGFTDLHTEVYRKTLAGEGFGLDEAAEAIRVAALLRTLPLSQPSPENRHPFLG
# B2: Nudt8 (Mus musculus, UniProt Q9CR24); chain MLPDGLSAEDEQRCRQLLARTTARLRSRPAAAAVLVPLCLVRGVPALLYTLRSSRLVGRHKGEVSFPGGKCDPDDQDVIHTALRETQEELGLEVPKEHVWGVLQPVYDREKATIVPVLANVGPLDLQSLRPNLEEVDEVFEMSLAHLLQTQNQGYTHFCQGGHFSYTLPVFLHGPHRVWGLTAVITELTLKLLAPGFYQPSLAVPELPRG
# B3: CMBL (Homo sapiens, UniProt Q96DG6); chain MANEAYPCPCDIGHRLEYGGLGREVQVEHIKAYVTKSPVDAGKAVIVIQDIFGWQLPNTRYIADMISGNGYTTIVPDFFVGQEPWDPSGDWSIFPEWLKTRNAQKIDREISAILKYLKQQCHAQKIGIVGFCWGGTAVHHLMMKYSEFRAGVSVYGIVKDSEDIYNLKNPTLFIFAENDVVIPLKDVSLLTQKLKEHCKVEYQIKTFSGQTHGFVHRKREDCSPADKPYIDEARRNLIEWLNKYM
# B4: enzyme (Vitis vinifera, UniProt F6H697); chain MAVDPILSSPLGPAASEKDAKALQFIEEMTRNADSVQERVLAEILSRNGETEYLKRFKLEGSTVRETFKSKIPVIKYEDLQPEIQRIANGDRSAILSAHPISEFLTSSGTSAGERKLMPTIQEELDRRQMLYSLLMPVMNLYVPGLDKGKGLYFLFVKSETRTPGGLLARPVLTSYYKSEHFKTRPYDPYNVYTSPNEAILCADSFQSMYTQMLCGIYERKQVLRLGAVFASGLLRAIRFLQLNWHQLTHDIRTGTLSPKITDPSVRNCVAGVLKPDPELADLVAGECSKDNWEGIITRIWPNTKYLDVIVTGAMAQYIPTLDYYSGGLPLACTMYASSECYFGLNLNPMSKPSEVSYTIMPNMAYFEFLPHEHSSIPLSRDSPPRLVDLAHVEVGKEYELVITTYAGLYRYRVGDILRVTGFHNSAPQFHFVRRKNVLLSIDSDKTDEAELQKAVDNASKLLREVNTSVVEYTSFADTKTIPGHYVIYWELLVKDSANSPSDELLGQCCLAMEESLNSVYRQGRVADNSIGPLEIRVVKSGTFEELMDYAISRGASINQYKVPRCVNFTPIMELLDSRVVSSHFSPALPHWTPARRR
# B5: PTR1 (Trypanosoma brucei, UniProt O76290); chain MEAPAAVVTGAAKRIGRAIAVKLHQTGYRVVIHYHNSAEAAVSLADELNKERSNTAVVCQADLTNSNVLPASCEEIINSCFRAFGRCDVLVNNASAFYPTPLVQGDHEDNSNGKTVETQVAELIGTNAIAPFLLTMSFAQRQKGTNPNCTSSNLSIVNLCDAMVDQPCMAFSLYNMGKHALVGLTQSAALELAPYGIRVNGVAPGVSLLPVAMGEEEKDKWRRKVPLGRREASAEQIADAVIFLVSGSAQYITGSIIKVDGGLSLVHA
# B6: cyc1 F96W (Streptomyces coelicolor, UniProt Q9K499); chain MHAFPHGTTATPTAIAVPPSLRLPVIEAAFPRQLHPYWPKLQETTRTWLLEKRLMPADKVEEYADGLCYTDLMAGYYLGAPDEVLQAIADYSAWFWVWDDRHDRDIVHGRAGAWRRLRGLLHTALDSPGDHLHHEDTLVAGFADSVRRLYAFLPATWNARFARHFHTVIEAYDREFHNRTRGIVPGVEEYLELRRLTFAHWIWTDLLEPSSGCELPDAVRKHPAYRRAALLSQEFAAWYNDLCSLPKEIAGDEVHNLGISLITHHSLTLEEAIGEVRRRVEECITEFLAVERDALRFADELADGTVRGKELSGAVRANVGNMRNWFSSVYWFHHESGRYMVDSWDDRSTPPYVNNEAAGEK
# Chain of UniProt Q29437 (whole entry, looked up): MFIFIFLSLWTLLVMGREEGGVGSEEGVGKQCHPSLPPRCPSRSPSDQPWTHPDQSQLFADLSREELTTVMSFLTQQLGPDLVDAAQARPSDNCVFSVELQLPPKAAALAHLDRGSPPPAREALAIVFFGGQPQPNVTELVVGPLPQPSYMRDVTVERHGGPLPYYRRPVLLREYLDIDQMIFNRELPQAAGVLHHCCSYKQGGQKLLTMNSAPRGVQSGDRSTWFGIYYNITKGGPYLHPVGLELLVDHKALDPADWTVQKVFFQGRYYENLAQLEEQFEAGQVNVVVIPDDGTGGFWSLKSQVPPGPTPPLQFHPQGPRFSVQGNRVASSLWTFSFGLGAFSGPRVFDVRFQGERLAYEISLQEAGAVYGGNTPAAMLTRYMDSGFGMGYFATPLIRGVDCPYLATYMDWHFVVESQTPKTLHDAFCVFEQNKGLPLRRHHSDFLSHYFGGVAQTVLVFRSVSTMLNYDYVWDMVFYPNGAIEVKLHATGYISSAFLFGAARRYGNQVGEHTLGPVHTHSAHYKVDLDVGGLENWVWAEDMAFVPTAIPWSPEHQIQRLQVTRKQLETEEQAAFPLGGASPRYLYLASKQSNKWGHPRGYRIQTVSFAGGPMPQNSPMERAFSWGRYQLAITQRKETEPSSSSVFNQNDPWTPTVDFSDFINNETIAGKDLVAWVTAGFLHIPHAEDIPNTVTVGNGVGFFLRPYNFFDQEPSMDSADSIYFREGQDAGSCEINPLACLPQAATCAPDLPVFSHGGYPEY
# Chain of UniProt P19337 (whole entry, looked up): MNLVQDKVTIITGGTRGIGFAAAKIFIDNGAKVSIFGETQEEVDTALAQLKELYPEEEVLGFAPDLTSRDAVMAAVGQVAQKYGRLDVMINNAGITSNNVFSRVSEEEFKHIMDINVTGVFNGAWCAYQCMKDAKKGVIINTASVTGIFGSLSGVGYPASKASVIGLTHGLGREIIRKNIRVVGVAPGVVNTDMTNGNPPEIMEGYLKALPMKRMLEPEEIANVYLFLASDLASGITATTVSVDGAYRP
# Chain of UniProt Q9UNA4 (whole entry, looked up): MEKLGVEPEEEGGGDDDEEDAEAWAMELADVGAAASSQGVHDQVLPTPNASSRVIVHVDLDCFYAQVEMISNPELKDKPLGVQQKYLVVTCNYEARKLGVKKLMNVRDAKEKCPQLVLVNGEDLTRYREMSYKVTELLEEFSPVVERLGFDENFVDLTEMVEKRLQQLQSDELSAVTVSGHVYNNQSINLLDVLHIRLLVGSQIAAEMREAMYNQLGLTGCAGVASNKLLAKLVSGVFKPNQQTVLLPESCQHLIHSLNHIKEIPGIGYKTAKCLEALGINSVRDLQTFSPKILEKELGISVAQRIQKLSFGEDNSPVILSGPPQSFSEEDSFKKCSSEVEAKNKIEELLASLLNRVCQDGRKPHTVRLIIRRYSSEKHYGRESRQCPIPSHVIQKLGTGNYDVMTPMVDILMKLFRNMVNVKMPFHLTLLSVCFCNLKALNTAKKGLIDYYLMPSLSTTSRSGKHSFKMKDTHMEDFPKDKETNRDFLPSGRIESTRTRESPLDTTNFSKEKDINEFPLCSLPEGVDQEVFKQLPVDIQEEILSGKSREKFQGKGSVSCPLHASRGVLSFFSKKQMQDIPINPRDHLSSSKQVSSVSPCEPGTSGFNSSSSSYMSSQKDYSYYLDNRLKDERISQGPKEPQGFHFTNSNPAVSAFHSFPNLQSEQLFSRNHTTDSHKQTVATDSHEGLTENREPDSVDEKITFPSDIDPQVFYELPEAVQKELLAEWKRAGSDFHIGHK
# Chain of UniProt Q2FXA5 (whole entry, looked up): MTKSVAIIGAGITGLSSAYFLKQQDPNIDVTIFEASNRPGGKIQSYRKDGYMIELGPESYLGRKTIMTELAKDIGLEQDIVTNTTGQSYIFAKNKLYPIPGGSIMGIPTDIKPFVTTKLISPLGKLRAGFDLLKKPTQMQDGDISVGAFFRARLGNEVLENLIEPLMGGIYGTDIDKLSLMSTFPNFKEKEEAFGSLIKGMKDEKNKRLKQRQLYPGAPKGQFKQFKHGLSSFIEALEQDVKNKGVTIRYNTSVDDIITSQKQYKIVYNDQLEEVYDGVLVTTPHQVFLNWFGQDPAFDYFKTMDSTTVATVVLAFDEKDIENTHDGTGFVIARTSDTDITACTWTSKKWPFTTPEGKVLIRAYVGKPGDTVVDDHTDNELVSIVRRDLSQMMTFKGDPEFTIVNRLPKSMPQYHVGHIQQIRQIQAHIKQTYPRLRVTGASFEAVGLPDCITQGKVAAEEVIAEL
Substance,substrate,sample,pH,temperature,notes,with,Km [µM]
B1 (WlbA),CC(=O)N[C@H]1[C@@H](OP(=O)(O)OP(=O)(O)OC[C@H]2O[C@@H](n3ccc(=O)[nH]c3=O)[C@H](O)[C@@H]2O)O[C@H](C(=O)O)[C@@H](O)[C@@H]1O,,pH 8.5,25 °C,,enzyme-bound NAD(H),430
B2 (Nudt8),CCCCCC(=O)SCCNC(=O)CCNC(=O)[C@H](O)C(C)(C)COP(=O)(O)OP(=O)(O)OC[C@H]1O[C@@H](n2cnc3c(N)ncnc32)[C@H](O)[C@@H]1OP(=O)(O)O,,pH 8.5,,,2 mM Mn2+,251
"BaiA2 (Clostridium scindens, UniProt P19337)",C[C@H](CCC(=O)SCCNC(=O)CCNC(=O)[C@H](O)C(C)(C)COP(=O)(O)OP(=O)(O)OC[C@H]1O[C@@H](n2cnc3c(N)ncnc32)[C@H](O)[C@@H]1OP(=O)(O)O)[C@H]1CC[C@H]2[C@@H]3[C@H](O)C[C@@H]4CC(=O)CC[C@]4(C)[C@H]3C[C@H](O)[C@]12C,,pH 8.7,37 °C,,NADH,1.8
B3 (CMBL),Cc1oc(=O)oc1COC(=O)C1=C([C@H]2CCCO2)S[C@@H]2[C@@H]([C@@H](C)O)C(=O)N12,lysate,pH 7.4,37 °C,not purified,,283
"protein (Actinidia chinensis, UniProt H9M5U5)",CC(C)=CCC/C(C)=C/CC/C(C)=C/CO[P@@](=O)(O)OP(=O)(O)O,,pH 7.5,room temperature,labelled compound,MgCl2 20 mM,0.8
"Plasma amine oxidase (Bos taurus, UniProt Q29437)",CN(C)CCOc1ccc2cc(CN)ccc2c1,,pH 7.2,30 °C,,,0.202
"enzyme (Limosilactobacillus reuteri, UniProt Q5SBN3)",OC[C@H]1O[C@@](CO)(O[C@H]2O[C@H](CO)[C@@H](O)[C@H](O)[C@H]2O)[C@@H](O)[C@@H]1O,,pH 4.7,37 °C,,,2700
"alanine aminopeptidase (Neisseria meningitidis, UniProt Q9JYV4)",NC(=O)Cc1cc(=O)oc2cc(NC(=O)[C@@H](N)CC(=O)OCc3ccccc3)ccc12,,pH 7.5,37 °C,,,117
B4 (enzyme),O=C(O)Cc1cccc2ccccc12,,pH 8.6,25 °C,,,190
"POLI (Homo sapiens, UniProt Q9UNA4)",Cc1cn([C@H]2C[C@H](O)[C@@H](COP(=O)(O)OP(=O)(O)OP(=O)(O)O)O2)c(=O)[nH]c1=O,,pH 8,37 °C,misinsertion opposite dT,Mg2+,70
"enzyme (Staphylococcus aureus, UniProt Q2FXA5)",Cc1c2[nH]c(c1CCC(=O)O)Cc1[nH]c(c(CCC(=O)O)c1C)Cc1[nH]c(c(CCC(=O)O)c1C)Cc1[nH]c(c(C)c1CCC(=O)O)C2,,pH 8,37 °C,,,6.7
B5 (PTR1),NC(=O)C1=CN([C@@H]2O[C@H](COP(=O)(O)OP(=O)(O)OC[C@H]3O[C@@H](n4cnc5c(N)ncnc54)[C@H](OP(=O)(O)O)[C@@H]3O)[C@@H](O)[C@H]2O)C=CC1,,pH 7.4,25 °C,"apparent, cofactor varied",,1.7
B6 (cyc1 F96W),CC(C)=CCC/C(C)=C/CC/C(C)=C/CO[P@@](=O)(O)OP(=O)(O)O,,pH 6.5,30 °C,,MgCl2 10 mM,0.31

# A few entries again:
Substance,substrate,sample,pH,temperature,notes,with,Km [µM]
"protein (Actinidia chinensis, UniProt H9M5U5)",CC(C)=CCC/C(C)=C/CC/C(C)=C/CO[P@@](=O)(O)OP(=O)(O)O,,pH 7.5,room temperature,labelled compound,MgCl2 20 mM,0.8
